{"data": "Experimental data pooled from the literature", "note": "Each line is one published result; not all experiments were run side by side. Numbers after ± are the reported error."}
{"SMILES": "CCCCC1NC(=O)c2ccccc21 (racemic)", "assay": "thrombosis", "system": "mouse, carrageenan-induced thrombosis", "conditions": "oral, 20 mg/kg daily for 2 days, 24 h after carrageenan", "measurement": "black tail occurrence", "value": "40%"}
{"SMILES": "CNC(=O)N(C)c1ccc(C(=O)Nc2ccc(Cl)cc2C(=O)Nc2ccc(Cl)cn2)cc1", "system": "human plasma", "measurement": "concentration doubling prothrombin time", "value": "2.5 ± 0.5 µM"}
{"SMILES": "CCCC[C@H](NC(=O)[C@@H](NC(=O)[C@H](CC(=O)O)NC(=O)[C@H](CCC(N)=O)NC(=O)[C@H](CC(C)C)NC(=O)[C@H](CC(C)C)NC(=O)[C@H](CCCN)NC(=O)[C@H](CCCNC(=N)N)NC(=O)[C@H](C)NC(=O)[C@H](CO)NC(=O)[C@H](CC(C)C)NC(=O)[C@H](CCC(N)=O)NC(=O)[C@H](CC)NC(=O)[C@H](CC(C)C)NC(=O)[C@@H](NC(=O)[C@H](CCCN)NC(=O)[C@H](CCCNC(=N)N)NC(=O)[C@H](Cc1ccc(O)cc1)NC(=O)[C@H](CO)NC(=O)[C@H](CC(N)=O)NC(=O)[C@@H](NC(=O)[C@H](Cc1ccccc1)NC(=O)[C@@H](NC(=O)[C@H](C)NC(=O)[C@H](CC(=O)O)NC(=O)[C@@H](CC)NC(=O)CCc1ccc(O)cc1)[C@@H](C)CC)[C@@H](C)O)C(C)C)[C@@H](C)CC)C(=O)N[C@@H](CO)C(=O)N[C@@H](CCCNC(=N)N)C(=O)NCCCC(N)=O", "assay": "GH release", "system": "rat, male, serum", "conditions": "subcutaneous, 3 µg/kg, 30 min", "how to read": "reference: reference GHRH agonist JI-38", "measurement": "relative potency", "value": 1.02}
{"SMILES": "COc1cc2c(cc1OC)-c1cc3ccc(OC)c(OC)c3c[n+]1CC2", "system": "rat, STZ-induced diabetic, serum", "conditions": "oral, 12 mg/kg, day 28", "measurement": "total cholesterol", "value": "101 ± 4.32 mg/dL"}
{"SMILES": "COc1c2c(cc3oc(CO)cc(=O)c13)O[C@H](C(C)(C)O)C2", "assay": "analgesic effect", "system": "Kunming mouse, female", "conditions": "oral, 4 mg/kg, 0 h, 55 °C, before dosing, 30 s cut-off", "measurement": "hot plate latency", "value": "9 ± 1.17 s"}
{"SMILES": "CCCCCCCCCCCCCCCC(=O)NCCCC[C@H](NC(=O)[C@H](CCC(=O)O)NC(=O)[C@H](Cc1ccc(O)cc1)NC(=O)[C@H](CCC(=O)O)NC(=O)COCC(=O)NCCCOCCOCCOCCCNC(=O)[C@H](Cc1c[nH]c2ccccc12)NC(=O)[C@H](CCCCN)NC(=O)[C@H](C)NC(=O)[C@H](CCCCNC(=N)N)NC(=O)[C@H](CCC(N)=O)NC(=O)[C@H](Cc1c[nH]cn1)NC(=O)[C@H](CCSC)NC(=O)[C@H](CC(C)C)NC(=O)[C@H](CCC(N)=O)NC(=O)[C@@H](NC(=O)[C@H](CCC(=O)O)NC(=O)C(C)(C)NC(=O)[C@@H](NC(=O)C(C)(C)N)C(C)C)[C@@H](C)CC)C(=O)N[C@@H](CCC(=O)O)C(=O)N[C@@H](Cc1ccc(O)cc1)C(=O)N[C@@H](CCC(=O)O)C(N)=O", "assay": "item: Ca2+", "system": "CD-1 mice, blood", "conditions": "iv, 10 nmol/kg", "measurement": "duration of calcemic response", "value": "≥ 7 h"}
{"SMILES": "Nc1nc2c(ncn2COCCOC(=O)CCC(=O)OC[C@H](N)C(=O)O)c(=O)[nH]1", "system": "excised rabbit cornea", "conditions": "1000 µM, Na+-free buffer", "how to read": "reference: Na+-containing buffer", "measurement": "transport across cornea", "value": "298%"}
{"SMILES": "CCCCCCCCCC(=O)NCCCC[C@@H](NC(=O)[C@@H](CC(C)C)NC(=O)[C@@H](CCCCN)NC(=O)[C@@H](CCCCNC(=O)[C@@H](CC(C)C)NC(=O)[C@@H](CCN)NC(=O)[C@@H](CCCCNC(=O)[C@@H](Cc1ccccc1)NC(=O)[C@H](N)CCCN)NC(=O)[C@@H](Cc1ccccc1)NC(=O)[C@H](N)CCCN)NC(=O)[C@@H](CC(C)C)NC(=O)[C@@H](CCN)NC(=O)[C@@H](CCCCNC(=O)[C@@H](Cc1ccccc1)NC(=O)[C@H](N)CCCN)NC(=O)[C@@H](Cc1ccccc1)NC(=O)[C@H](N)CCCN)C(N)=O", "assay": "carboxyfluorescein release", "system": "EYPG vesicles", "conditions": "10 µg/mL, 250 s, pH 7.4, 25 °C", "how to read": "reference: Triton X-100", "measurement": "leakage", "value": "65%"}
{"SMILES": "CCCC[C@H](NC(=O)[C@@H](NC(=O)[C@H](CC(=O)O)NC(=O)[C@H](CCC(N)=O)NC(=O)[C@H](CC(C)C)NC(=O)[C@H](CC(C)C)NC(=O)[C@H](CCCN)NC(=O)[C@H](CCCNC(=N)N)NC(=O)[C@H](C)NC(=O)[C@H](CO)NC(=O)[C@H](CC(C)C)NC(=O)[C@H](CCC(N)=O)NC(=O)[C@H](CC)NC(=O)[C@H](CC(C)C)NC(=O)[C@@H](NC(=O)[C@H](CCCN)NC(=O)[C@H](CCCNC(=N)N)NC(=O)[C@H](Cc1ccc(O)cc1)NC(=O)[C@H](CO)NC(=O)[C@H](CCC(N)=O)NC(=O)[C@@H](NC(=O)[C@H](Cc1c(F)c(F)c(F)c(F)c1F)NC(=O)[C@@H](NC(=O)[C@H](C)NC(=O)[C@H](CC(=O)O)NC(=O)[C@@H](C)NC(=O)[C@H](Cc1ccc(O)cc1)NC)[C@@H](C)CC)[C@@H](C)O)C(C)C)[C@@H](C)CC)C(=O)N[C@@H](CC(=O)O)C(=O)N[C@@H](CCCNC(=N)N)C(=O)NC", "assay": "GH release", "system": "male rat, serum", "conditions": "subcutaneous, dose not given, 30 min", "how to read": "reference: GHRH(1-29)NH2", "measurement": "relative potency", "value": 148}
{"SMILES": "O=C1/C(=C/c2ccc(O)cc2)Oc2cc(O)c3c(oc4cc(O)c(O)cc43)c21", "assay": "ABTS scavenging, absorbance", "measurement": "EC50", "value": "2960 µM"}
{"note": "A few entries again:"}
{"SMILES": "CCCCCCCCCCCCCCCC(=O)NCCCC[C@H](NC(=O)[C@H](CCC(=O)O)NC(=O)[C@H](Cc1ccc(O)cc1)NC(=O)[C@H](CCC(=O)O)NC(=O)COCC(=O)NCCCOCCOCCOCCCNC(=O)[C@H](Cc1c[nH]c2ccccc12)NC(=O)[C@H](CCCCN)NC(=O)[C@H](C)NC(=O)[C@H](CCCCNC(=N)N)NC(=O)[C@H](CCC(N)=O)NC(=O)[C@H](Cc1c[nH]cn1)NC(=O)[C@H](CCSC)NC(=O)[C@H](CC(C)C)NC(=O)[C@H](CCC(N)=O)NC(=O)[C@@H](NC(=O)[C@H](CCC(=O)O)NC(=O)C(C)(C)NC(=O)[C@@H](NC(=O)C(C)(C)N)C(C)C)[C@@H](C)CC)C(=O)N[C@@H](CCC(=O)O)C(=O)N[C@@H](Cc1ccc(O)cc1)C(=O)N[C@@H](CCC(=O)O)C(N)=O", "assay": "item: Ca2+", "system": "CD-1 mice, blood", "conditions": "iv, 10 nmol/kg", "measurement": "duration of calcemic response", "value": "≥ 7 h"}
